Measured values gathered from unrelated publications.
Organism: Staphylococcus aureus

CN[C@H](CC(C)C)C(=O)N[C@H]1C(=O)N[C@@H](CC(N)=O)C(=O)N[C@H]2C(=O)N[C@H]3C(=O)N[C@H](C(=O)N[C@H](C(=O)NCC(N)=O)c4cc(O)cc(O)c4-c4cc3ccc4O)[C@H](O)c3ccc(c(Cl)c3)Oc3cc2cc(c3O[C@@H]2O[C@H](CO)[C@@H](O)[C@H](O)[C@H]2O[C@H]2C[C@](C)(NCc3ccc(OCc4cn(CC(=O)N[C@H](C(=O)N[C@@H](CCN)C(=O)N[C@H]5CCNC(=O)[C@H]([C@@H](C)O)NC(=O)[C@H](CCN)NC(=O)[C@H](CCN)NC(=O)[C@H](CC(C)C)NC(=O)[C@@H](CC(C)C)NC(=O)[C@H](CCN)NC5=O)[C@@H](C)O)nn4)c(OC)c3)[C@H](O)[C@H](C)O2)Oc2ccc(cc2Cl)[C@H]1O — MIC (broth microdilution; VISA LIM-2, tryptic soy broth; 20 to 24 h, 37 °C, 0.002% polysorbate 80): 2 µg/mL
CC[C@H](C)[C@H](NC(=O)[C@@H](CCCNC(=N)N)NC(=O)[C@H](CCCNC(=N)N)NC(=O)[C@@H](NC(=O)[C@H](Cc1c[nH]c2ccccc12)NC(=O)[C@H](CCCNC(=N)N)NC(=O)[C@@H]1CCCN1C(=O)[C@H](CCCNC(=N)N)NC(=O)[C@@H]1CCCN1C(=O)[C@H](CC(C)C)NC(=O)[C@H](Cc1ccc(O)cc1)NC(=O)[C@@H]1CCCN1C(=O)[C@@H]1CCCN1C(=O)[C@H](CCCCN)NC(=O)[C@H](CC(=O)O)NC(=O)[C@@H](N)C(C)C)[C@@H](C)O)C(=O)N[C@@H](Cc1ccc(O)cc1)C(=O)N[C@@H](CC(N)=O)C(=O)N[C@H](CCCNC(=N)N)C(N)=O — MIC (broth microdilution; DSM 6247; 18 h, 37 °C, 25% MHB2): 64 µg/mL
CC[C@H](C)[C@H](NC(=O)[C@H](CCCNC(=N)N)NC(=O)[C@@H]1CCCN1C(=O)[C@H](CCCNC(=N)N)NC(=O)[C@H](Cc1ccccc1)NC(=O)[C@H](Cc1c[nH]cn1)NC(=O)[C@H](CCCNC(=N)N)NC(=O)[C@H](CC(C)C)NC(=O)[C@H](CCCCN)NC(=O)CNC(=O)[C@H](CC(C)C)NC(=O)[C@H](Cc1ccccc1)NC(=O)[C@H](CCCNC(=N)N)NC(=O)CNC(=O)[C@H](Cc1ccccc1)NC(=O)[C@H](CCCNC(=N)N)NC(=O)CNC(=O)[C@H](CCCNC(=N)N)NC(=O)[C@H](CCC(N)=O)NC(=O)[C@@H](NC(=O)[C@@H](N)CC(C)C)[C@@H](C)CC)C(=O)N[C@@H](CCCCN)C(=O)N[C@@H](Cc1ccccc1)C(=O)N[C@@H](CCCCN)C(=O)NCC(=O)N[C@@H](CCCCN)C(=O)N[C@@H](C)C(=O)NCC(=O)N[C@@H](Cc1c[nH]c2ccccc12)C(=O)N[C@H](C(=O)N[C@H](C(=O)NCC(=O)O)C(C)C)[C@@H](C)O — MIC (broth microdilution; ATCC 25923): 0.94 log10 µg/mL
CC[C@H](C)[C@H](NC(=O)[C@H](Cc1c[nH]c2ccccc12)NC(=O)[C@H](CCCCN)NC(=O)[C@H](CC(C)C)NC(=O)[C@@H](NC(=O)[C@@H](NC(=O)CNC(=O)[C@H](CCCCN)NC(=O)[C@H](Cc1c[nH]cn1)NC(=O)[C@H](CCCCN)NC(=O)[C@H](Cc1c[nH]c2ccccc12)NC(=O)[C@H](C)NC(=O)[C@H](CC(C)C)NC(=O)[C@H](CO)NC(=O)[C@@H](NC(=O)[C@H](Cc1ccc(O)cc1)NC(=O)[C@H](CCCCN)NC(=O)[C@H](CCC(N)=O)NC(=O)CNC(=O)[C@H](CCCCN)NC(=O)[C@@H](NC(=O)[C@H](C)NC(=O)[C@H](CC(C)C)NC(=O)[C@H](Cc1ccccc1)NC(=O)[C@H](CCC(N)=O)NC(=O)[C@@H](NC(=O)[C@H](CC(C)C)NC(=O)[C@H](CCCCN)NC(=O)[C@H](CCSC)NC(=O)[C@H](Cc1ccccc1)NC(=O)[C@H](C)NC(=O)[C@H](C)NC(=O)[C@@H](N)CCSC)[C@@H](C)CC)[C@@H](C)O)C(C)C)[C@@H](C)O)[C@@H](C)CC)C(=O)N[C@@H](CC(N)=O)C(N)=O — MIC (EMRSA 12873; 24 h, 37 °C): 32 µg/mL
CC(C)C[C@@H](NC(=O)[C@@H](CCCNC(=N)N)NC(=O)[C@H](N)CCCNC(=N)N)C(=O)N[C@H](CC(C)C)C(=O)N[C@H](CCCNC(=N)N)C(=O)N[C@H](CCCCN)C(=O)N[C@H](CC(C)C)C(=O)N[C@H](CCCCN)C(=O)NCC(=O)N[C@H](CCCCN)C(=O)N[C@H](CCCCN)C(=O)N[C@H](CC(C)C)C(=O)N[C@H](Cc1ccc(O)cc1)C(=O)N[C@H](CC(C)C)C(=O)N[C@H](Cc1ccc(O)cc1)C(=O)N[C@H](Cc1ccccc1)C(=O)N[C@H](CCCCN)C(=O)N[C@H](CC(C)C)C(=O)N[C@H](CCC(N)=O)C(=O)N[C@H](CC(C)C)C(=O)N[C@H](CC(C)C)C(=O)N[C@H](CCCCN)C(=O)N[C@H](CCCCN)C(N)=O — MIC (CCARM 3090, methicillin-resistant, Mueller-Hinton broth; 24 h): 4 µM
CCCCCCCCCCCCCC(=O)N[C@H]1C(=O)N[C@@H](CN)C(=O)N[C@@H](CO)C(=O)N[C@@H](Cc2ccc(O)cc2)C(=O)O[C@H]1C — MIC (SH1000; together with: phosphatidylglycerol, molar ratio 1): 4 µg/mL
CC(C)C[C@@H]1NC(=O)[C@H](CCCCN)NC(=O)CSC[C@@H](C(=O)N[C@@H](CCCCN)C(N)=O)NC(=O)[C@H](CC(C)C)NC(=O)[C@H](CC(C)C)NC(=O)[C@H](CC(C)C)NC(=O)[C@@H]2CSCC(=O)N[C@@H](CCCCN)C(=O)N[C@@H](CC(C)C)C(=O)N[C@@H](CCCCN)C(=O)N[C@@H](CCCCNC(=O)[C@H](CCCCN)NC1=O)C(=O)N[C@@H](CCCCN)C(=O)N[C@@H](CC(C)C)C(=O)N[C@@H](CC(C)C)C(=O)N2 — MIC (broth microdilution; MRSA clinical isolate): > 128 µg/mL
Cc1ccc2[nH]c3c(c2c1)CCCC3NCCc1ccc(Br)cc1 (centres unmarked) — MIC (broth microdilution; HG001 daptomycin-resistant): 4 µg/mL
CC(C)CCCCCCCCC/C=C/C(=O)N[C@@H](CC(N)=O)C(=O)N[C@H]1CNC(=O)[C@@H]2CCCN2C(=O)[C@H](C(C)C)NC(=O)[C@@H](CN)NC(=O)CNC(=O)[C@H](CC(=O)O)NC(=O)CNC(=O)[C@H](CC(=O)O)NC(=O)[C@H](CC(=O)O)NC(=O)[C@H]2CCCCN2C1=O — MIC (broth microdilution; MRSA USA300, Mueller-Hinton broth, Mg2+ 10 mg/L; 16 h, 37 °C, together with: Ca2+ 10 mM): 2 µg/mL
CN[C@H](CC(C)C)C(=O)N[C@H]1C(=O)N[C@@H](CC(N)=O)C(=O)N[C@H]2C(=O)N[C@H]3C(=O)N[C@H](C(=O)N[C@H](C(=O)N[C@@H](CCCNC(=N)N)C(N)=O)c4cc(O)cc(O)c4-c4cc3ccc4O)[C@H](O)c3ccc(c(Cl)c3)Oc3cc2cc(c3O[C@@H]2O[C@H](CO)[C@@H](O)[C@H](O)[C@H]2O[C@H]2C[C@](C)(NCc3ccc(OCc4cn(CC(=O)N[C@H](C(=O)N[C@@H](CCN)C(=O)N[C@H]5CCNC(=O)[C@H]([C@@H](C)O)NC(=O)[C@H](CCN)NC(=O)[C@H](CCN)NC(=O)[C@H](CC(C)C)NC(=O)[C@@H](CC(C)C)NC(=O)[C@H](CCN)NC5=O)[C@@H](C)O)nn4)c(OC)c3)[C@H](O)[C@H](C)O2)Oc2ccc(cc2Cl)[C@H]1O — MIC (NRS402 VISA): 1 µM
Oc1c(Br)cc(Br)c2nc3cc(C(F)(F)F)ccc3nc12 — MIC (broth microdilution; 25923): 0.05 µM
N=C(N)NCCC[C@H](NC(=O)[C@H](CCCNC(=N)N)NC(=O)[C@H](CCCNC(=N)N)NC(=O)[C@H](CCC(N)=O)NC(=O)[C@H](CCCNC(=N)N)NC(=O)[C@H](CCCNC(=N)N)NC(=O)[C@H](CCCCN)NC(=O)[C@H](CCCCN)NC(=O)[C@H](CCCNC(=N)N)NC(=O)CNC(=O)[C@@H](N)Cc1ccc(O)cc1)C(=O)O — MIC (broth microdilution; drug-resistant clinical isolates, Mueller-Hinton broth; 18 to 20 h, 37 °C): > 128 µM
CC[C@H]1OC(=O)[C@H](C)[C@@H](OC(=O)Cc2ccc([N+](=O)[O-])cc2)[C@H](C)[C@@H](O[C@@H]2O[C@H](C)C[C@H](N(C)C)[C@H]2O)[C@](C)(OC)C[C@@H](C)C(=O)[C@H](C)[C@@H](O)[C@]1(C)O — MIC (microbial growth; BAA976): 1 µg/mL
Cc1ccc(NC(=O)Nc2cccc(C(=O)N3CCC(C)CC3)c2)cc1 — MIC (checkerboard, measured: ceftobiprole; CRB, PBP4 overexpressor; 25 µM): > 64 µg/mL

Some of these lines once more:
CC(C)C[C@@H]1NC(=O)[C@H](CCCCN)NC(=O)CSC[C@@H](C(=O)N[C@@H](CCCCN)C(N)=O)NC(=O)[C@H](CC(C)C)NC(=O)[C@H](CC(C)C)NC(=O)[C@H](CC(C)C)NC(=O)[C@@H]2CSCC(=O)N[C@@H](CCCCN)C(=O)N[C@@H](CC(C)C)C(=O)N[C@@H](CCCCN)C(=O)N[C@@H](CCCCNC(=O)[C@H](CCCCN)NC1=O)C(=O)N[C@@H](CCCCN)C(=O)N[C@@H](CC(C)C)C(=O)N[C@@H](CC(C)C)C(=O)N2 — MIC (broth microdilution; MRSA clinical isolate): > 128 µg/mL
